# Measured values pooled from the literature.
# Each numbered part is a random draw from the data of one study; scales do not carry over between parts. Values joined by “and” are separate records of one study, mostly repeats; a detail may differ.
# Sequence of UniProt P29597 (whole entry, looked up): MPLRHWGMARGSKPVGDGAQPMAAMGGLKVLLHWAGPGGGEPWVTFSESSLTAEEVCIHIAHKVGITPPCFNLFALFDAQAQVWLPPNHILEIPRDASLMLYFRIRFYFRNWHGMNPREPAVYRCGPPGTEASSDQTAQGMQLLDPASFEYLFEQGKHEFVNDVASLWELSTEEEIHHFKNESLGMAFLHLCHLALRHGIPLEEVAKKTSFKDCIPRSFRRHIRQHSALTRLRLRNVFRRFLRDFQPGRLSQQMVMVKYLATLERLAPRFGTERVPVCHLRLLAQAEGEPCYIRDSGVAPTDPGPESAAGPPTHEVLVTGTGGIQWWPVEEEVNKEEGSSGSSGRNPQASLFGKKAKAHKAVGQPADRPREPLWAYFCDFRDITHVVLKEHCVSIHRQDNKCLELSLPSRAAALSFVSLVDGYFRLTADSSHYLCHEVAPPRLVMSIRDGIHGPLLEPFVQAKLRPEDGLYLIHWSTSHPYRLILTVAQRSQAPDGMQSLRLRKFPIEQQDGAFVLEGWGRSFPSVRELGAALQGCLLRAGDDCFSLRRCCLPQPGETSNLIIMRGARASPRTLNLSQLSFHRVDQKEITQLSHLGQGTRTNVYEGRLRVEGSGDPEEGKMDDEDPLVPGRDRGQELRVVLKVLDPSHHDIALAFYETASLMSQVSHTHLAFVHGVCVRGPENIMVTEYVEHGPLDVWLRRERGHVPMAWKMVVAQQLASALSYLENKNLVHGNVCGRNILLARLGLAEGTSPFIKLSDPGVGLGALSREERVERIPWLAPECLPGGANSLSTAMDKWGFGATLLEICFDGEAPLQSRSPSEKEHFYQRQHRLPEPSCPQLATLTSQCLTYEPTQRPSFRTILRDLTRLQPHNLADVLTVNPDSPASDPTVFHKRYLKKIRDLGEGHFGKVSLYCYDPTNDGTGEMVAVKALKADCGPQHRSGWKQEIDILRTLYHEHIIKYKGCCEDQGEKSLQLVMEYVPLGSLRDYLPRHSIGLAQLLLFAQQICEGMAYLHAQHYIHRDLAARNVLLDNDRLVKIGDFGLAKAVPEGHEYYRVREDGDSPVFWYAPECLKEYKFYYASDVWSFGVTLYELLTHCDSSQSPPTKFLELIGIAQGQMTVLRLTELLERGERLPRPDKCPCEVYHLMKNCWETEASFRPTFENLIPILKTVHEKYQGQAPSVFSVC
# Sequence of UniProt P25098 (whole entry, looked up): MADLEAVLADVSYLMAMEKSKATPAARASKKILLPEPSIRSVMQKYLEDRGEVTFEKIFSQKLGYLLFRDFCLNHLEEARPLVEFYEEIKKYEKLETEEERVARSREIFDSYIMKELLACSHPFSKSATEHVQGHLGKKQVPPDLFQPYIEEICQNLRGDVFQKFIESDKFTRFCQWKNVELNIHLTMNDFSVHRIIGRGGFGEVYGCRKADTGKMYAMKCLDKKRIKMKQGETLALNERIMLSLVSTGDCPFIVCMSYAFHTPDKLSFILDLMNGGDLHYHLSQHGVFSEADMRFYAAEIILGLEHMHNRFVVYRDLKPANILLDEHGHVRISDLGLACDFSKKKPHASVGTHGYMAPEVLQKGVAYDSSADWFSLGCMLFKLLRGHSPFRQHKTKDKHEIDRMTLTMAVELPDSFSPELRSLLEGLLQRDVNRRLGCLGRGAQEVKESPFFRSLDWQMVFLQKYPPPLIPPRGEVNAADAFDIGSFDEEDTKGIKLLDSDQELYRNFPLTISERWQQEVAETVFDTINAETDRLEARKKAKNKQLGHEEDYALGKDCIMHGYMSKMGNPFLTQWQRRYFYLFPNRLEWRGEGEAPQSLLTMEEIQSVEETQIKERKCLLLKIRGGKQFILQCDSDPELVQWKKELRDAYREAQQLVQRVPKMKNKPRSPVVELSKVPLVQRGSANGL
# Sequence of UniProt Q9BVS4 (whole entry, looked up): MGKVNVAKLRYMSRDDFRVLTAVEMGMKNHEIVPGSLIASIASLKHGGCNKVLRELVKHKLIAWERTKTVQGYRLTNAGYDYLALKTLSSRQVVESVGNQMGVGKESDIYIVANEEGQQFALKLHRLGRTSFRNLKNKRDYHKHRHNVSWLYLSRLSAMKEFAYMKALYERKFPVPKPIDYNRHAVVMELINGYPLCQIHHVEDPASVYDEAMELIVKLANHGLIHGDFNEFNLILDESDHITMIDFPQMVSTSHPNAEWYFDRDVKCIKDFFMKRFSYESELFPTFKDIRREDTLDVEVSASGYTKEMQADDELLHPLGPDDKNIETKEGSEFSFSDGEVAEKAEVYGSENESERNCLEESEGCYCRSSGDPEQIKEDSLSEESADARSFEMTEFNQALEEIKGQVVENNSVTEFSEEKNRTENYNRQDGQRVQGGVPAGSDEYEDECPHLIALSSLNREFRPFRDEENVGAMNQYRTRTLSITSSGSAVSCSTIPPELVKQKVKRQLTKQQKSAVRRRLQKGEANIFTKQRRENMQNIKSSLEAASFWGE
# Sequence of UniProt Q8IVH8 (whole entry, looked up): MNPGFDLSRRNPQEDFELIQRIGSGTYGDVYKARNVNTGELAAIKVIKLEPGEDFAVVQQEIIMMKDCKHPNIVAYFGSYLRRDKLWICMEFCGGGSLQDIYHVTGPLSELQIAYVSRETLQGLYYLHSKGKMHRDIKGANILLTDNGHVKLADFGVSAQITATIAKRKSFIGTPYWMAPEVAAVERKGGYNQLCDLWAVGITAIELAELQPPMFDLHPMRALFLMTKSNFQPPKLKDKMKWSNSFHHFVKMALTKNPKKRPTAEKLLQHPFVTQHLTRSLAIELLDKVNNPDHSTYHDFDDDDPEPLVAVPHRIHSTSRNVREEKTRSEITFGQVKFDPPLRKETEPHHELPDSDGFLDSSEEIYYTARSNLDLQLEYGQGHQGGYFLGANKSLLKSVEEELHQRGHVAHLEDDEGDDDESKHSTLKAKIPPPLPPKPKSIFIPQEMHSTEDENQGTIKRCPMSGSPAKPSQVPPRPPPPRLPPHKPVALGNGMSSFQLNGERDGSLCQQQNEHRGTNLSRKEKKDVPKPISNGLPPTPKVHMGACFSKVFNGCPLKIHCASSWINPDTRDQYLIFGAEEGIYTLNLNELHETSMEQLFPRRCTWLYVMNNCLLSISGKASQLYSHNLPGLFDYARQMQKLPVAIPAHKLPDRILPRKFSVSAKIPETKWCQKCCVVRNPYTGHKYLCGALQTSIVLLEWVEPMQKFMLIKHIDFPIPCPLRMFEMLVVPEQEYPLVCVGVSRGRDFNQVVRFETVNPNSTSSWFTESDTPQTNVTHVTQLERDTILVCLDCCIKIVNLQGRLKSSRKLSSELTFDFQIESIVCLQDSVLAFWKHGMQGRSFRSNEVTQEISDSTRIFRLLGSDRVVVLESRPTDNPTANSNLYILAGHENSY
# Sequence of UniProt Q13523 (whole entry, looked up): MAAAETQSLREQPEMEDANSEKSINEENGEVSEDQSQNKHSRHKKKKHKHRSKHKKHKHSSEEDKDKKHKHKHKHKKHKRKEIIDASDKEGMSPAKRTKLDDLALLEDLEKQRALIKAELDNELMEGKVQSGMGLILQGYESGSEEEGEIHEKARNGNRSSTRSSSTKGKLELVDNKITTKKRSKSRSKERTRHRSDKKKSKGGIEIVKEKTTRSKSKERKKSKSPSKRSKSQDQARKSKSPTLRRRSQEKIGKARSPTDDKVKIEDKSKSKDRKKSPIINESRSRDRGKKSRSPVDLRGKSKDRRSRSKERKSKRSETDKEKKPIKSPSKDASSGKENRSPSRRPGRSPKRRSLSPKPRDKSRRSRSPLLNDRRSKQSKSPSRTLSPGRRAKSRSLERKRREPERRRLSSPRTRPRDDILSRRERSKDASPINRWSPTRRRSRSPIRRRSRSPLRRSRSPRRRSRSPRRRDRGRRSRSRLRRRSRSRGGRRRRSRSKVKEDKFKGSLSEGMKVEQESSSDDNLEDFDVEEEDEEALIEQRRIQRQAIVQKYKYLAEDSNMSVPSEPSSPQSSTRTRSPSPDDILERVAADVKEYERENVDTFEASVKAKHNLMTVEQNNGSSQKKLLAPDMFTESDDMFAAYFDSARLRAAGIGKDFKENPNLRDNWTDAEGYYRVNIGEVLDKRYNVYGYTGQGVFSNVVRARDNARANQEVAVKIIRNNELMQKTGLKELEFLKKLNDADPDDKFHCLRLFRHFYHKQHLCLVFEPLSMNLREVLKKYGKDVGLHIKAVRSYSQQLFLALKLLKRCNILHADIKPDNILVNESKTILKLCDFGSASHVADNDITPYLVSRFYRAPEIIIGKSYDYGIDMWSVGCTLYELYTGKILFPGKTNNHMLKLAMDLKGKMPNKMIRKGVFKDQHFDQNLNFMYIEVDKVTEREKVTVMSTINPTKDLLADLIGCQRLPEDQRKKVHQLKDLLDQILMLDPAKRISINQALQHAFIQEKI
# Sequence of UniProt P45983 (whole entry, looked up): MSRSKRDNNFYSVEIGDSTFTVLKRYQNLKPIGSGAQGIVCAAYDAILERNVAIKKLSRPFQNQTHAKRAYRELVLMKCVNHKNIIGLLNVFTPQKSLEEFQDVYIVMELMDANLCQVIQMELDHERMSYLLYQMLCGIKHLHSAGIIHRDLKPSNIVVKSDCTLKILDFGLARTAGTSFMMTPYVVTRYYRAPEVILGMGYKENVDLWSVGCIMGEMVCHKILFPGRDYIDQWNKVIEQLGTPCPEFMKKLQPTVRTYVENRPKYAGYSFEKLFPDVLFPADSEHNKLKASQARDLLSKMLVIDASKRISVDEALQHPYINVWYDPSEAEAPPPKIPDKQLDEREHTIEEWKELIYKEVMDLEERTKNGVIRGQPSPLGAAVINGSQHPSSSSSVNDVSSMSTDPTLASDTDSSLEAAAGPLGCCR

# Set 1
# Medium: hydrocarbon/water
# pH: 7.4
Structure (SMILES),logD
CCC[C@@H]1NC(=O)[C@H](C)N(C)C(=O)[C@H](CC(C)C)NC(=O)Cn2cc(nn2)CN(C)C(=O)[C@H](CC(C)C)NC(=O)[C@H](C)N(C)C(=O)[C@H](CC)NC(=O)[C@H](CC)N(C)C(=O)[C@H]2CCCN2C1=O,-1.59
CCCCCN1CC(=O)N[C@@H](C)C(=O)N2CCC[C@@H]2C(=O)N(C)[C@@H](CC(C)C)C(=O)N[C@@H](C)C(=O)N(CCCOC(C)C)CC(=O)N[C@@H](CC(C)C)C(=O)N2CCC[C@@H]2C(=O)N(C)[C@@H](CC(C)C)C(=O)N[C@@H](C)C1=O,1.66
CCCN1CC(=O)N[C@@H](C2CCCCC2)C(=O)N2CCC[C@@H]2C(=O)N(C)[C@@H](C)C(=O)N[C@@H](CC2CCCCC2)C(=O)N(C)[C@@H](C)C(=O)N[C@@H](CC(C)C)C(=O)N(C)Cc2cn(nn2)CC(=O)N[C@@H](CC(C)C)C1=O,1.29
CCN1CC(=O)NC(CC(C)C)C(=O)N(C)C(C)C(=O)NC(CC(C)C)C(=O)N2CCCC2C(=O)N(CC2CCCCC2)CC(=O)NC(CC(C)C)C(=O)N(C)C(C)C(=O)NC(C)C(=O)N2CCCC2C1=O (stereo not drawn),2.45
CCC[C@H]1C(=O)N[C@@H](CC2CCCCC2)C(=O)N(C)[C@@H](C)C(=O)N[C@@H](CC(C)C)C(=O)N(C)Cc2cn(nn2)CC(=O)N[C@@H](CC(C)C)C(=O)N(C)[C@@H](C)C(=O)N[C@@H](CC2CCCCC2)C(=O)N2CCC[C@@H]2C(=O)N1C,2.29
CCCN1CC(=O)N[C@@H](CC)C(=O)N(C)[C@@H](C)C(=O)N[C@@H](CC(C)C)C(=O)N(C)Cc2cn(nn2)CC(=O)N[C@@H](CC(C)C)C(=O)N(C)[C@@H](C)C(=O)N[C@@H](CC(C)C)C(=O)N2CCC[C@@H]2C1=O,-0.908
CCN1CC(=O)N[C@@H](CC(C)C)C(=O)N2CCC[C@@H]2C(=O)N(C)[C@@H](CC(C)C)C(=O)N[C@@H](C)C(=O)N(CC2CCOCC2)CC(=O)N[C@@H](C)C(=O)N2CCC[C@@H]2C(=O)N(C)[C@@H](CC(C)C)C(=O)N[C@@H](C)C1=O,-0.892
CCC[C@@H]1NC(=O)[C@H](C)N(C)C(=O)[C@H](CC(C)C)NC(=O)Cn2cc(nn2)CN(C)C(=O)[C@H](CC(C)C)NC(=O)[C@H](C)N(C)C(=O)[C@H](CC)NC(=O)[C@H](CCC)N(C)C(=O)[C@H]2CCCN2C1=O,-0.834
CC[C@@H]1C(=O)N(C)[C@@H](C)C(=O)N[C@@H](CC(C)C)C(=O)N2CCC[C@@H]2C(=O)N(C)[C@@H](C)C(=O)N[C@@H](CC(C)C)C(=O)N1C,0.488
CC[C@@H]1NC(=O)[C@H](C)N(C)C(=O)[C@H]2CCCN2C(=O)[C@H](CC(C)C)NC(=O)CN(CC)C(=O)[C@H](CC(C)C)NC(=O)Cn2cc(nn2)CN(C)C(=O)[C@H](CC(C)C)NC(=O)[C@H](C)N(C)C1=O,-2.28
CC[C@@H]1NC(=O)[C@@H](CC(C)C)NC(=O)[C@H](CC(C)C)NC(=O)[C@H](Cc2ccccc2)NC(=O)[C@H]2CCCN2C(=O)[C@H](CC(C)C)NC1=O,1

# Set 2
# Cell line: A-375
# Tested at: 100 µM
# Time: 18 h
Structure (SMILES),viability
CC(=O)[C@@]1(O)CC[C@H]2[C@@H]3CCC4=CC(=O)CC[C@]4(C)[C@H]3CC[C@@]21C,89%
Cc1ccc(C(=O)c2ccc(CC(=O)O)n2C)cc1,97.5%
N=C(N)NC(=O)c1nc(Cl)c(N)nc1N,94.3% and 85.1%
NCCCCCC(=O)O,87%
CCOc1cc(N)c(Cl)cc1C(=O)NCC1CN(Cc2ccc(F)cc2)CCO1 (stereo not drawn),115%
Cc1cc(C)cc(OCC2CNC(=O)O2)c1 (stereo not drawn),96.4%
NC(=O)N1c2ccccc2CC(=O)c2ccccc21,79.9%
N=C(N/N=C/c1ccc(Cl)cc1)N/N=C/c1ccc(Cl)cc1,9.63%
O=C1OC2(c3ccc(O)cc3Oc3cc(O)ccc32)c2ccccc21,186%
c1ccc(CC2=NCCN2)cc1,65.2%
C[C@H](CCC(=O)O)[C@H]1CC[C@H]2[C@@H]3[C@H](O)C[C@@H]4C[C@H](O)CC[C@]4(C)[C@H]3C[C@H](O)[C@]12C,84.1%
CC(C(O)c1ccc(O)cc1)N1CCC(Cc2ccccc2)CC1 (stereo not drawn),64.4%
CCOC(N)=O,108%
COc1cc2c(cc1OC)CC(=O)N(CCCN(C)C[C@H]1Cc3cc(OC)c(OC)cc31)CC2,93.4%
CCN(CC)C(=S)SSC(=S)N(CC)CC,67.4%
COC(=O)Nc1nc2ccc(C(=O)c3ccccc3)cc2[nH]1,46.2%
CC(C)(C(=O)c1cccnc1)c1cccnc1,101%
CN(C)CC[C@@H](c1ccc(Cl)cc1)c1ccccn1,96.9%
O=C(CCCCCCC(=O)Nc1ccccc1)NO,64.5%
CCCCCNC(=N)N/N=C/c1c[nH]c2ccc(OC)cc12,8.8%
Cc1cccc(Nc2cc(Cl)nc(SCC(=O)O)n2)c1C,111%

# Set 3
# SMILES: CS(=O)(=O)c1cc(C2(NC(=O)c3cncc4c3cnn4-c3ccc(F)cc3)CC2)ccn1
# Read-out: cell-free assay
# Method: competition with immobilised ligand
# Tested at: 1 µM
target,remaining binding [%]
"CDC42BPA (Homo sapiens, UniProt Q5VT25)",100
"MAP4K3 (Homo sapiens, UniProt Q8IVH8)",87
"PIK3C2B (Homo sapiens, UniProt O00750)",84
"EGFR (Homo sapiens, UniProt P00533, T790M)",100
"MYLK4 (Homo sapiens, UniProt Q86YV6)",85
"PRPF4B (Homo sapiens, UniProt Q13523)",100
"MAP3K4 (Homo sapiens, UniProt Q9Y6R4)",87
"RIOK2 (Homo sapiens, UniProt Q9BVS4)",94
"PIK3C2G (Homo sapiens, UniProt O75747)",93
"Tyrosine-protein kinase ABL1, non-phosphorylated (ABL1, Homo sapiens, UniProt P00519, H396P)",100
"PDPK1 (Homo sapiens, UniProt O15530)",100
"Non-receptor tyrosine-protein kinase TYK2, JH2 (TYK2, Homo sapiens, UniProt P29597)",100
"RIPK4 (Homo sapiens, UniProt P57078)",87
"TGFBR1 (Homo sapiens, UniProt P36897)",100
"SYK (Homo sapiens, UniProt P43405)",100
"MAPK8 (Homo sapiens, UniProt P45983)",95
"STK32C (Homo sapiens, UniProt Q86UX6)",81
"SBK1 (Homo sapiens, UniProt Q52WX2)",95
"GRK2 (Homo sapiens, UniProt P25098)",48

# Set 4
# Target: Non-receptor tyrosine-protein kinase TYK2 (TYK2, Homo sapiens, UniProt P29597)
# Read-out: enzyme activity
# Mode: inhibitor
# Tested at: 0.5 µM
# Relative to: control
Compound,remaining activity
COc1cc(Nc2c(C#N)cnc3cc(OCCCN4CCN(C)CC4)c(OC)cc23)c(Cl)cc1Cl,98.1%
Fc1ccc(-c2nc3n(c2-c2ccncc2)CCS3)cc1,107%
CCc1[nH]c(-c2ccc(OC)cc2)nc1-c1ccncc1,106%
O=C1NC(=O)C(c2c[nH]c3ccccc23)=C1c1c[nH]c2ccccc12,109%
CC(=O)c1ccc(N2CCOCC2)cc1O,110%
CC(C)(C)n1nc(Cc2cccc3ccccc23)c2c(N)ncnc21,99.5%
Oc1ccc(Nc2nc(-c3ccc(Cl)cc3)cs2)cc1,110%
CC#CC(=O)Nc1cc2c(Nc3ccc(F)c(Cl)c3)ncnc2cn1,106%
Cc1cc(Nc2nc(-c3ccccc3)nc3ccccc23)n[nH]1,34.3%
CCCC(=O)Oc1ccc2[nH]c(C(=O)c3cc4ccccc4[nH]3)cc2c1,90.7%
Nc1ncnc2c1cnn2-c1ccccc1,86.7%
CSc1nc(-c2ccnc(N[C@@H](C)c3ccccc3)c2)c(-c2ccc(F)cc2)[nH]1 (racemic),96.5%
Nc1nccc(-c2c(-c3ccc(F)cc3)ncn2C2CCNCC2)n1,99.8%
O=S(=O)(NCCNC/C=C/c1ccc(Br)cc1)c1cccc2cnccc12,103%
NC(=O)c1ccc(N(C(N)=O)c2c(F)cccc2F)nc1-c1ccc(F)cc1F,93.5%
CC[n+]1c(/C=C/N(C)c2ccccc2)n(-c2ccccc2)c2ccc(-c3nc4ccccc4s3)cc21,88.5%
N#CC(=C(N)Sc1ccc(N)cc1)c1ccccc1C(F)(F)F,102%
O=C1Cc2c([nH]c3ccc([N+](=O)[O-])cc23)-c2ccccc2N1,56.5%
COc1ccc(S(=O)(=O)N(CCO)c2ccccc2CN(C)CC=Cc2ccc(Cl)cc2)cc1,110%
Cc1cncc2cccc(S(=O)(=O)N3CCCN(C(=O)CN)C[C@@H]3C)c12,86.6%
Cc1ccc(NC2=CC(=O)c3sc(C)nc3C2=O)cc1,109%
